Results gathered from unrelated publications.
Each line is one published result; not all experiments were run side by side. ± marks the error that the study gave.

| SMILES | target or system | assay | system | setting | how to read | endpoint | value |
| --- | --- | --- | --- | --- | --- | --- | --- |
| CC(C)(C(=O)N1CCOc2c(C#N)cncc2C1)C(F)F |  | item: Psychiatric disorders | human | oral, 10 mg once daily, 14 days, multiple ascending dose |  | subjects with adverse event | 0% |
| CC[C@H](C)[C@H](NC(=O)[C@H](CCCNC(=N)N)NC(=O)[C@H](CCC(=O)O)NC(C)=O)C(=O)N[C@H]1CSSC[C@@H](C(=O)N[C@H](C(N)=O)[C@@H](C)O)NC(=O)[C@H](CCCNC(=N)N)NC(=O)[C@H](Cc2c[nH]cn2)NC(=O)[C@H](C)NC(=O)CNC(=O)[C@H](Cc2c[nH]c3ccccc23)NC(=O)[C@H](CC(=O)O)NC(=O)[C@H](CCC(N)=O)NC(=O)[C@H](Cc2c[nH]c3ccccc23)NC(=O)[C@H](C(C)C)NC1=O |  | isocratic RP-HPLC, C18 | 32% acetonitrile, phosphate pH 7.4, 1% TFA | 25 °C |  | retention factor | 0.317 ± 0.02 |
| Cn1cc(Nc2nccc(-c3ccc4c(c3)CN(C3COC3)CC[C@H]4NC(=O)c3cn(C(C)(C)C)nn3)n2)cn1 |  |  | human, whole blood | 50 mg twice daily, day 14 | baseline: pre-dose baseline | lymphocyte count change | 3.03% |
| N#CCc1ccccc1C#Cc1ccc(CCC(=O)O)cc1 |  |  |  | 10 µM, Cerep high-content toxicity |  | change in mitochondrial membrane potential | -2% |
| O=C(COc1ccc(Cl)cc1)NC12CC(c3nnc([C@H]4C[C@@H](OC(F)(F)F)C4)o3)(C1)C2 |  | item: Headache | human | 200 mg once daily, 28 (unit not given) |  | adverse event incidence | 44.4% |
| NC1(C(=O)N[C@@H](CCO)c2ccc(Cl)cc2)CCN(c2nc[nH]c3nccc2-3)CC1 |  |  | metastatic CRPC patients | 320 mg b.i.d., any grade, treatment-related, added: enzalutamide 160 mg daily |  | incidence of Vomiting | 0% |
| O=C(Nc1cnccc1Cl)N1CCN(Cc2ccc3c(c2)OC(F)(F)O3)CC1 |  |  | healthy young women, plasma | oral, 100 mg once daily, day 1 |  | AUC(0-24) | 5740 ng·h/mL |
| O=C(Nc1nc2cccc(-c3ccc(CN4CCS(=O)(=O)CC4)cc3)n2n1)C1CC1 |  | item: non-cardiac chest pain | human rheumatoid arthritis patients | oral, 300 mg once daily, 4 weeks, regardless of relatedness |  | treatment-emergent adverse events | 0% |
| N#Cc1ccc2c(c1)[C@H]1CCCN(C(=O)c3ccc4[nH]cnc4c3)[C@H]1C2 |  |  | human, female | 160 mg, end of trial |  | androstenedione level | 5.6 nmol/L |
| OC[C@H]1O[C@@H](c2ccc(Cl)c(Cc3ccc(O[C@H]4CCOC4)cc3)c2)[C@H](O)[C@@H](O)[C@@H]1O |  |  | Japanese type 1 diabetes patients, blood | 10 mg, day 28 | baseline: baseline | change in Total cholesterol | 0.17 mg/dL |
| O=C(NCCCNc1nc(Nc2cccc(NC(=O)N3CCCC3)c2)ncc1C1CC1)C1CCC1 |  | PAMPA | PBS | 5 h, pH 7.4 |  | effective permeability | 0.597 ×10⁻⁶ cm/s |
| CN(CCCNC(=O)c1cccc(C(=O)O)c1)CCCNC(=O)c1cc(NC(=O)c2cc(NC(=O)c3cc(NC(=O)c4cc(NC(=O)C[C@@H](N)CNC(=O)c5cc(NC(=O)c6cc(NC(=O)c7nc(NC(=O)c8nccn8C)cn7C)cn6C)cn5C)cn4C)cn3C)cn2C)cn1C |  | dynamic light scattering | 0.1% DMSO in PBS | 25 °C |  | critical aggregation concentration | 4 µM |
| CC(C)(Oc1ccc(Cl)cc1)C(=O)OCCOC(=O)c1cccnc1 | THP-1 | pyroptotic LDH release |  | 2 µM, 40 min, added: LPS then nigericin |  | inhibition | 0.591% |
| CN1CCN(c2cccc3c2CCN(C(=O)/C=C/c2c(-n4cnnn4)ccc(Cl)c2F)[C@@H]3C(=O)Nc2ccc(C(=O)O)cc2)C(=O)C1 |  |  | healthy human subjects | intravenous infusion, 10 mg/h, 2 h |  | subjects with nausea | 0% |
| N#CCNC(=O)c1ccc(-c2ccnc(Nc3ccc(N4CCOCC4=O)cc3)n2)cc1 |  |  | healthy volunteers, plasma | dose not given, added: rifampin single-dose | baseline: with rifampin over alone | Cmax geometric mean ratio | 106% |
| CCCCOc1cc(C(=O)OCCN(CC)CC)ccc1N | THP-1 | pyroptotic LDH release |  | 2 µM, 40 min, added: LPS then nigericin |  | inhibition | 20.8% |

For quick reference, copied from above:
| SMILES | target or system | assay | system | setting | how to read | endpoint | value |
| --- | --- | --- | --- | --- | --- | --- | --- |
| OC[C@H]1O[C@@H](c2ccc(Cl)c(Cc3ccc(O[C@H]4CCOC4)cc3)c2)[C@H](O)[C@@H](O)[C@@H]1O |  |  | Japanese type 1 diabetes patients, blood | 10 mg, day 28 | baseline: baseline | change in Total cholesterol | 0.17 mg/dL |
| CC[C@H](C)[C@H](NC(=O)[C@H](CCCNC(=N)N)NC(=O)[C@H](CCC(=O)O)NC(C)=O)C(=O)N[C@H]1CSSC[C@@H](C(=O)N[C@H](C(N)=O)[C@@H](C)O)NC(=O)[C@H](CCCNC(=N)N)NC(=O)[C@H](Cc2c[nH]cn2)NC(=O)[C@H](C)NC(=O)CNC(=O)[C@H](Cc2c[nH]c3ccccc23)NC(=O)[C@H](CC(=O)O)NC(=O)[C@H](CCC(N)=O)NC(=O)[C@H](Cc2c[nH]c3ccccc23)NC(=O)[C@H](C(C)C)NC1=O |  | isocratic RP-HPLC, C18 | 32% acetonitrile, phosphate pH 7.4, 1% TFA | 25 °C |  | retention factor | 0.317 ± 0.02 |
| Cn1cc(Nc2nccc(-c3ccc4c(c3)CN(C3COC3)CC[C@H]4NC(=O)c3cn(C(C)(C)C)nn3)n2)cn1 |  |  | human, whole blood | 50 mg twice daily, day 14 | baseline: pre-dose baseline | lymphocyte count change | 3.03% |
